Measured values collected from several papers.
Numbered parts are unrelated; each lists some results of a single study. Positions count from the first letter of the parent shown.

Set 1
Target: Histone acetyltransferase KAT6A, winged helix 2, GST fusion (KAT6A, Homo sapiens, UniProt Q92794, residues 85-181)
Method: protein binding microarray
Form: double-stranded DNA, one strand shown
Matrix: in vitro
Concentration: not given
Setting: 8-mer, flanks averaged, mean of 2 arrays, mostly near background
Reference: not given
Direction: higher = stronger binding
Target sequence (chain): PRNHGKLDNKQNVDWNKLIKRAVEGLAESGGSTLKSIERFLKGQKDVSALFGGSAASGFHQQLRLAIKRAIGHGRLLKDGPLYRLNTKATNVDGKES
| Strand | E-score |
| --- | --- |
| ATTGCCCG | 0.0449 |
| AAGATAAC | -0.188 |
| CCGAACGG | 0.272 |
| GACGGAAC | -0.0326 |
| ATCGGAGG | 0.00431 |
| ATGCCGGA | 0.152 |
| CCCTCTTC | -0.166 |
| ATAATCCA | -0.0673 |
| ATTACACA | -0.0153 |
| GAAATCAC | 0.181 |
| ATAATGTG | -0.0646 |
| CGGTTGAA | -0.051 |
| CCCTTCCG | 0.147 |
| AAGAGATG | -0.145 |
| GAACTTTA | -0.0135 |
| ACCGTATG | -0.0644 |
| AGTTAAAG | 0.046 |
| CAATATCA | -0.0739 |
| GCCCTGAA | 0.0599 |
| GGAGAACC | 0.0987 |
| AGTCAACT | -0.168 |

Set 2
Target: Ras GTPase-activating protein-binding protein 1, RRM domain (G3BP1, Homo sapiens, UniProt Q13283)
UniProt Q13283, sequence (whole entry, looked up): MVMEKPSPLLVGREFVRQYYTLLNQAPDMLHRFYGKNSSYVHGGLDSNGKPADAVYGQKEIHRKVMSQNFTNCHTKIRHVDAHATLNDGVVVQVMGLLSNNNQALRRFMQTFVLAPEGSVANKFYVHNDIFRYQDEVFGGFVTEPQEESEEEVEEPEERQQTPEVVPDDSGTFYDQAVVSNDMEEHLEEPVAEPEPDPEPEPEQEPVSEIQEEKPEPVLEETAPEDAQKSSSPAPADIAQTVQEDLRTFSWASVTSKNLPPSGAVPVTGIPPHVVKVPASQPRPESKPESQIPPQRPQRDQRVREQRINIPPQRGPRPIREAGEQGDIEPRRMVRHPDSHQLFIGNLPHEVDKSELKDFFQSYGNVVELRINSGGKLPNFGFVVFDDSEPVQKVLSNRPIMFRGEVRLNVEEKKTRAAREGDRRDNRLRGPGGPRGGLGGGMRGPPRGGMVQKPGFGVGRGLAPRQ
Method: RNA Bind-n-Seq
Form: RNA
Matrix: in vitro
Concentration: 1 µM
Setting: whole 134-nt RNA, ends assumed
Together with: 150 mM KCl
Reference: input library
Direction: higher = stronger binding
Shared flanks, not repeated: GGGAGUUCUACAGUCCGACGAUC … UGGAAUUCUCGGGUGUCAAGG
| Strand | log2 enrichment |
| --- | --- |
| UAACUUUAGAGGAGGAUCUGAUGGAUAUGGCAGUGGACGUGGAUUUGGGGAUGGCUAUAAUUGGUAUGGAGGAGGACCUGGAGGUGGCAA | -0.321 |
| UCAAGUCCUGUGCUACACAUCGUAUGUACCGAAUCGGUUUGGGUUUGGGUUUGGGAAAGUAUUAUGUUACGCCGUUCGGAUCUGCACUUC | -0.239 |
| UCCUGUGCUACACAUCGUAUGUACCGAAUCGGGUUUUUGGGAAAAAGGGAAAAAAAGGGAAAGUAUUAUGUUACGCCGUUCGGAUCUGCA | 0.0243 |
| CCUGUGCUACACAUCGUAUGUACCGAAUCGGGGUUUUUUUGGGGAAAGGGGAAAAAGGGGAAAGUAUUAUGUUACGCCGUUCGGAUCUGC | 0.236 |
| AAGUCCUGUGCUACACAUCGUAUGUACCGAAUCGGGCCCCGGGCCCCGGCCCCGGGGAAAGUAUUAUGUUACGCCGUUCGGAUCUGCACU | -0.839 |
| UCAAGUCCUGUGCUACACAUCGUAUGUACCGAAUCGGGGUGGGGAGGGGUGGGGAAAGUAUUAUGUUACGCCGUUCGGAUCUGCACUUCC | 0.491 |
| UUAUCACCAGGACUGCCAUGUUCCCAGGGCUCCAGCCCCUGGAGAGGGAGAGGGCACAUCCUGGGUAUGCCGCCAGUGUGUCUUUGCGAU | -0.348 |
| UAACUUUAGAGGAGGAUCUGAUGGAUAUGGCAUUGGACGUGGAUUUGGGGAUGGCUAUAAUGGGUAUGGAGGAGGACCUGGAGGUGGCAA | -0.694 |
| UGGAACAGCAGCUGCCACUCAGGCGUAAUUCCCACCUAGAGGAGAGUUUCACAUCCACCGAAGAAUCUUCCGAAGAAAAUGUCAACUUUU | 0.0171 |

Set 3
Target: Interferon regulatory factor 5, full length, phosphomimetic (IRF5, Homo sapiens, UniProt Q13568-2, residues 1-514, S451D/S453D/S456D/S462D)
Method: protein-binding microarray
Form: double-stranded DNA, one strand shown
Matrix: in vitro
Concentration: 940 nM top
Setting: 60-bp whole probe
Together with: salmon DNA 0.4 mg/ml
Reference: random background probes
Direction: higher = stronger binding
Shared flanks, not repeated: GCCTAGCAC … GTCTTGATTCGCTTGACGCTGCTG
| Strand | fitted relative affinity |
| --- | --- |
| TTAGGACTGGTACTGCTTTAGTGCTAG | -0.452 z-score |
| TCACTGCTACCCTTTGAAACTGTGCTA | 0.612 z-score |
| AAACGGATGATCTCTCTGGGCGTGCTA | -0.209 z-score |
| AACGAACTGGGGTTTCGAGACGTGCTA | 1.86 z-score |
| TTAGGTTTCGACCTTCGGTTAGTGCTA | 8.26 z-score |
| TTAGATCTCAAACTGGATTAGTGCTAG | -0.506 z-score |
| GACGGTATCCTTTTCCGGACGTGCTAG | 0.647 z-score |
| TTCGGACTGGGTTTCGGTTAGTGCTAG | 7.08 z-score |
| TTAGGTCTCGGAATCGGTTAGTGCTAG | 1.97 z-score |
| GACGGTTTCGACTTTCGCGACGTGCTA | 7.44 z-score |
| GACGATCCCAGTTTCGAGACGTGCTAG | 4.43 z-score |
| GACGGACTGCTTTTTCTGACGTGCTAG | -0.164 z-score |
| TTAGGTTTCGGTCTCGGTTCGTGCTAG | 16 z-score |
| TTAGGACTGCTACTGGTTTAGTGCTAG | -0.738 z-score |
| GACGATTTCGGTTTCGGGACGTGCTAG | 6.27 z-score |
| GACGGACTGGGTATCTGGACGTGCTAG | -0.0562 z-score |
| GACGGACTGGACAATGGGGACGTGCTA | -0.373 z-score |
| GTAGATTTCAGTCTCGATTAGTGCTAG | 3.86 z-score |
| TCAAGAATGTCCTTTCTCACTGTGCTA | 0.543 z-score |

Set 4
Target: CCNA1, cyclin fold, Cln2 fusion (human)
Method: yeast growth competition, sequencing
Matrix: yeast
Setting: weak parent motif
Reference: not given
Direction: higher = stronger binding
Starting sequence: ASZ1 docking peptide (human); GFGFLLFICKLTF; partner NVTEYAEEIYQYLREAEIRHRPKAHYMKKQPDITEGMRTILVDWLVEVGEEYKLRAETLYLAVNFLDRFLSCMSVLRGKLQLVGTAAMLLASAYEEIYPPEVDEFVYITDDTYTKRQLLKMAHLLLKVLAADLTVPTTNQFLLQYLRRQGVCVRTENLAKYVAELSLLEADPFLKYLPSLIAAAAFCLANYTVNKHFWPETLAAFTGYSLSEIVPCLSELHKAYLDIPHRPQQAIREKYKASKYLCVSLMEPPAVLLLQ
| Substitution | normalised enrichment score |
| --- | --- |
| C9A | -0.152 |
| F13A | 0.00423 |
| F7A | -0.737 |
| L6A | -0.145 |
| F4A | -0.3 |
| G1A | -0.172 |
| F2A | -0.0335 |

Further values, each from its own experiment
| Substance | target | assay | system | setting | scale | quantity | value |
| --- | --- | --- | --- | --- | --- | --- | --- |
| PhoQ, residues 284 288 289 292 302 303 SLGVVW | PhoP, residues 12 14 15 18 19 SPWRL (Escherichia coli, UniProt P23836) | Sort-seq, item: YFP reporter | E. coli | PhoQ-PhoP variant library, together with: 10 µM Mg2+ | reference: high Mg2+ state, higher = stronger signaling | fold induction | 16.3 |
